Experimental data collected from several papers.
± marks the error that the study gave.
SMARCA2: SWI/SNF-related matrix-associated actin-dependent regulator of chromatin subfamily A member 2 (SMARCA2, Homo sapiens, UniProt P51531)
HDAC6: Protein deacetylase HDAC6 (HDAC6, Homo sapiens, UniProt Q9UBN7)
Sequence of UniProt Q9UBN7 (whole entry, looked up): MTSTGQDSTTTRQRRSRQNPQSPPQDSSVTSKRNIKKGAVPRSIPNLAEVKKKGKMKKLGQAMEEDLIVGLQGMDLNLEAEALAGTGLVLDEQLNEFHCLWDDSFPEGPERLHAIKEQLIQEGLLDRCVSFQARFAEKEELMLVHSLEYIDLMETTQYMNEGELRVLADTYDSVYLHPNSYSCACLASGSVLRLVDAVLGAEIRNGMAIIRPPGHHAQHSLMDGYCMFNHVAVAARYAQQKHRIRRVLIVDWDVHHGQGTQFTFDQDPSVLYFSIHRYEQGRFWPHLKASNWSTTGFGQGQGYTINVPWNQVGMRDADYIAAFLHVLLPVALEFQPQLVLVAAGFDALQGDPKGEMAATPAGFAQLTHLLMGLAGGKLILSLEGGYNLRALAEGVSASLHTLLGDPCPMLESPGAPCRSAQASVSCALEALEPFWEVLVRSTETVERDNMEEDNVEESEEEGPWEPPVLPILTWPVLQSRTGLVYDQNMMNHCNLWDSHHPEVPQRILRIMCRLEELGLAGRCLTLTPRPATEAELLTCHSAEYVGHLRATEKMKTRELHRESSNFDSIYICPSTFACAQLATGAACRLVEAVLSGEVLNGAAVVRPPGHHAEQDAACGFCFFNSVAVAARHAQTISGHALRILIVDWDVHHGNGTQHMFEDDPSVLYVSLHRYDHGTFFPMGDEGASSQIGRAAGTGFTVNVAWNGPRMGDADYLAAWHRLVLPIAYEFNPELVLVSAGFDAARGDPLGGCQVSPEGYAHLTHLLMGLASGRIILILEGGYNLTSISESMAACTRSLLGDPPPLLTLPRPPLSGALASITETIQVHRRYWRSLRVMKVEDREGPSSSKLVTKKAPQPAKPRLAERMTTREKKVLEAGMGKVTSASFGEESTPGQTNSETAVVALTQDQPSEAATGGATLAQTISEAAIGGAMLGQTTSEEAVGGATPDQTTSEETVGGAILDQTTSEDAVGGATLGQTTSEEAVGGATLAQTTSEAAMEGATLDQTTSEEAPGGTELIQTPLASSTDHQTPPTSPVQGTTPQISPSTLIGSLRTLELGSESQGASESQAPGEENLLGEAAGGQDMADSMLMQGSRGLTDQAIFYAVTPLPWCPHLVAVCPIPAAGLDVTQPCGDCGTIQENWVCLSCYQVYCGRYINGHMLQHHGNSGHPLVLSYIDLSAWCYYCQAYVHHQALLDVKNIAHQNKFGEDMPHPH
HDAC6 ZnF-UBD domain: Protein deacetylase HDAC6, ZnF-UBD domain (HDAC6, Homo sapiens, UniProt Q9UBN7)
USP13 ZnF-UBD domain: Ubiquitin carboxyl-terminal hydrolase 13, ZnF-UBD domain (USP13, Homo sapiens, UniProt Q92995)
Sequence of UniProt Q92995 (whole entry, looked up): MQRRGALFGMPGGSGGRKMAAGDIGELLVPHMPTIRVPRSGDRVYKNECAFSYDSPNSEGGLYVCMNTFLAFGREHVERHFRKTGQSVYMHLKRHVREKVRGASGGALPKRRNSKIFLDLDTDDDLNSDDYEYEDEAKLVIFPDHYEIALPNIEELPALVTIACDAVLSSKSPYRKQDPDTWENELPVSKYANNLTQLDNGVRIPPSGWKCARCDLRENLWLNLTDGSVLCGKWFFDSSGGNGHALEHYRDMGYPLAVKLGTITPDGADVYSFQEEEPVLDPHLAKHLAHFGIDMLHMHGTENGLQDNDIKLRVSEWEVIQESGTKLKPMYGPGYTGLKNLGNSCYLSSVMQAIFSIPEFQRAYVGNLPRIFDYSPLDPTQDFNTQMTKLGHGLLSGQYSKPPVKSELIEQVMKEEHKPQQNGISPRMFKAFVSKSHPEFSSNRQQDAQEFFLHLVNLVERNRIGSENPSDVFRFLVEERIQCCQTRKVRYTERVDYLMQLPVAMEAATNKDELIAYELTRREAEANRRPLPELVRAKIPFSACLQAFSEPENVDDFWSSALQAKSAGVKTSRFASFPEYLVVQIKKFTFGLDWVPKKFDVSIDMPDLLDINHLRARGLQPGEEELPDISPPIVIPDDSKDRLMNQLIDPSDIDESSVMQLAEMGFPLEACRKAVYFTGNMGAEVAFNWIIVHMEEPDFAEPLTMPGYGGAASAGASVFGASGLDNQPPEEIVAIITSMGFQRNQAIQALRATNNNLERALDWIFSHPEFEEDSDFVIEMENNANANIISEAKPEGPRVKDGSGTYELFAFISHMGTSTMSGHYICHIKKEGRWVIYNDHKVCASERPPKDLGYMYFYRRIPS
Sequence of UniProt Q9UJQ4 (whole entry, looked up): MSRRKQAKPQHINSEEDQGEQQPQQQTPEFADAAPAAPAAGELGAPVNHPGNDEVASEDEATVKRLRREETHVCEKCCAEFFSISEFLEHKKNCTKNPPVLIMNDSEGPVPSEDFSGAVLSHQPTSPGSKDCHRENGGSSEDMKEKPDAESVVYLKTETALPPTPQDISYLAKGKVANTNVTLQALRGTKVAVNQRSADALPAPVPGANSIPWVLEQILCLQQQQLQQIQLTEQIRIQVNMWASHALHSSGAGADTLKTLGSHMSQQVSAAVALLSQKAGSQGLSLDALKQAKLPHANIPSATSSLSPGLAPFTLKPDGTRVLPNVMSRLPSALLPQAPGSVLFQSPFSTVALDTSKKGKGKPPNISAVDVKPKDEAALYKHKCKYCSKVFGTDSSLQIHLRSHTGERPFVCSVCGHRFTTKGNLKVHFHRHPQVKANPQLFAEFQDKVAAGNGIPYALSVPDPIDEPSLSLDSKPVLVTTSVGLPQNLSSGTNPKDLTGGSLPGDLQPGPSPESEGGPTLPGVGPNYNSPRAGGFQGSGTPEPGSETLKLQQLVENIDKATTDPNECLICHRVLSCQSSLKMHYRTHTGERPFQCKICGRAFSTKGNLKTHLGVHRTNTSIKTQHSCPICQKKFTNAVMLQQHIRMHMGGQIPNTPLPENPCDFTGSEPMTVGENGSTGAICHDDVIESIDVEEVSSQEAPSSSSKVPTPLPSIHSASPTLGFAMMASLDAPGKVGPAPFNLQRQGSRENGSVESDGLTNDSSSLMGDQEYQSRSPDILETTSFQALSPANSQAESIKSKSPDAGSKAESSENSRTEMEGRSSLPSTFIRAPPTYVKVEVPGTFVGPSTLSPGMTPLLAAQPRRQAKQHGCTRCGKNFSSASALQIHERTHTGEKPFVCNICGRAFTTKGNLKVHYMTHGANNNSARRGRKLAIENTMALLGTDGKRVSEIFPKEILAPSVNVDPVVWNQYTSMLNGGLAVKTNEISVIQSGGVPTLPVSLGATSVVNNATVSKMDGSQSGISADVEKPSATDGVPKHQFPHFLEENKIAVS
Sequence of UniProt P00698 (whole entry, looked up): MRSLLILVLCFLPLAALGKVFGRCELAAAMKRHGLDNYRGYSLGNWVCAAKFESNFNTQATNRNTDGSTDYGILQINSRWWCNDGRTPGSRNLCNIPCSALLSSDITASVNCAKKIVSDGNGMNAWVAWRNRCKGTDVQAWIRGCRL
Sequence of UniProt O14965 (whole entry, looked up): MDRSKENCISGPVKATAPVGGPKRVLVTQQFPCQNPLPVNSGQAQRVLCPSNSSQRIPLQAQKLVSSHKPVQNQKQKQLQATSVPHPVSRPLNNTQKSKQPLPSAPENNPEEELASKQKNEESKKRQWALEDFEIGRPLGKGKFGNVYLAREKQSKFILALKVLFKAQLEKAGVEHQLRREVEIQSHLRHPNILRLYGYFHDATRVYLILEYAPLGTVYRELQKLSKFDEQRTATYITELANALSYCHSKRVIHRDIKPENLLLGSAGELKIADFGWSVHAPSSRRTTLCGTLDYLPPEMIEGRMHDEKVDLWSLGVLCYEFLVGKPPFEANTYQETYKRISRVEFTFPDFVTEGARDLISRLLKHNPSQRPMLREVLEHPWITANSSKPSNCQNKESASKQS
Sequence of UniProt P34995 (whole entry, unmodified, looked up): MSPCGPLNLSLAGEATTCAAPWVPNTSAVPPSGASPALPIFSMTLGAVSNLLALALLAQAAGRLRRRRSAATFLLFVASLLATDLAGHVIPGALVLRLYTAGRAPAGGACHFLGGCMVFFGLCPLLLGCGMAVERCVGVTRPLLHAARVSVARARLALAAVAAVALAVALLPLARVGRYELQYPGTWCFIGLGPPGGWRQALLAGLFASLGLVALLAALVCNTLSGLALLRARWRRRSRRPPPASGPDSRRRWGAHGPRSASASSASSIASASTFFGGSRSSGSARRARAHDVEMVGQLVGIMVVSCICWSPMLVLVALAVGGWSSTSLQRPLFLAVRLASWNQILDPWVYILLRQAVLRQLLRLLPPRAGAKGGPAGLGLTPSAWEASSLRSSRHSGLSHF
Sequence of UniProt Q9UKI8 (whole entry, looked up): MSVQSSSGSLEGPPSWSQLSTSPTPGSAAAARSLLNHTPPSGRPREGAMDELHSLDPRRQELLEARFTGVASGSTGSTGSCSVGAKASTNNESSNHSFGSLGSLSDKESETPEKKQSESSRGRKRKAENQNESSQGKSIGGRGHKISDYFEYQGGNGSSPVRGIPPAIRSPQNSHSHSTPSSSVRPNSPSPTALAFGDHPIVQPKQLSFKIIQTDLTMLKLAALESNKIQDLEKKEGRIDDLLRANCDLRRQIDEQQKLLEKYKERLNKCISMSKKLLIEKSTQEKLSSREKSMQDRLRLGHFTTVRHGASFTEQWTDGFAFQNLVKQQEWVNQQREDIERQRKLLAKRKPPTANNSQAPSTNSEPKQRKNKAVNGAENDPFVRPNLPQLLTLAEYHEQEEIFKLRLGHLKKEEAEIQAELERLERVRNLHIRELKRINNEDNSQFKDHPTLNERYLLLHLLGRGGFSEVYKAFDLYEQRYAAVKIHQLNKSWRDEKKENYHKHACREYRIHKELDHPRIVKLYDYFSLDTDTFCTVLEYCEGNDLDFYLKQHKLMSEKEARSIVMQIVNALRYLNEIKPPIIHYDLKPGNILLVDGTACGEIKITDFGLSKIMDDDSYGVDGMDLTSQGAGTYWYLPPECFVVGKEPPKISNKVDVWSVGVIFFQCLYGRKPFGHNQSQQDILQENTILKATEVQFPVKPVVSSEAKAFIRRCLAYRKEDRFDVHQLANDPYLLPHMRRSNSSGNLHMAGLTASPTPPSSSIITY

SMILES | target | assay | test system | conditions | measurement | result
O=c1nc(N2CCN(CC3CCCCC3)CC2)sc2c([N+](=O)[O-])cc(C(F)(F)F)cc12 | Cytochrome P450 3A4 (CYP3A4, Homo sapiens, UniProt P08684) |  |  | 60 (unit not given), pH 7.4 | IC50 | > 10 µM
Cc1ncsc1-c1ccc(CNC(=O)[C@@H]2C[C@@H](O)CN2C(=O)[C@@H](NC(=O)C2(F)CC2)C(C)(C)C)c(OCCOc2ccc(CN3CCN(c4cc(-c5ccccc5O)nnc4N)CC3)cc2)c1 | SMARCA2 | degrader, capillary electrophoresis | MV4-11 | 18 h | DC50 | 0.031 µM
Nc1nnc(-c2ccccc2O)cc1N1CCN(Cc2ccc(OCCOCCNc3cccc4c3C(=O)N(C3CCC(=O)NC3=O)C4=O)c(F)c2)CC1 (stereo not drawn) | SMARCA2 | degrader, immunoblot | SMARCA4-mutant lung cancer cells | 96 h, median of twelve cell lines | DC50 | 0.0302 µM
CN(CCCCCCNC(=O)CNc1cccc2c1C(=O)N(C1CCC(=O)NC1=O)C2=O)Cc1cn(Cc2ccc(C(=O)NO)cc2)c2ccccc12 (stereo not drawn) | HDAC6 | degrader, western blot | MM1.S cells | 24 h | DC50 | 0.016 ± 0.0039 µM
CCCCC[C@H](O)/C=C/[C@H]1[C@H](O)CC(=O)[C@@H]1C/C=C\CCCC(=O)O | PTGER1 (Homo sapiens, UniProt P34995, L215A) | IP1 accumulation, agonist | AD293 | EP1 L215A mutant | EC50 | 0.00899 µM
Nc1nnc(-c2ccccc2O)cc1N1CC2CCC(C1)N2c1ccnc(F)c1 | SMARCA2 | degrader, immunofluorescence | SW1573 |  | DC50 | > 1 µM
NS(=O)(=O)c1ccc(NCC(=O)O)cc1 | HDAC6 ZnF-UBD domain |  |  |  | Kd | > 1000 µM
O=C(CNc1cccc2c1C(=O)N(C1CCC(=O)NC1=O)C2=O)NCCCCCCN1CCc2c(c3ccccc3n2Cc2ccc(C(=O)NO)cc2)C1 (stereo not drawn) | HDAC6 | degrader, western blot | MM1.S cells | 24 h | DC50 | 0.013 ± 0.0034 µM
O=C(O)CSc1nnc(NC(=O)COc2ccccc2)s1 | HDAC6 ZnF-UBD domain |  |  |  | Kd | 273 µM
Cc1ccc(NC(=O)NCc2ccc3c(c2)CN(C2CCC(=O)NC2=O)C3=O)cc1Cl (stereo not drawn) | Sal-like protein 4 (SALL4, Homo sapiens, UniProt Q9UJQ4) | degrader, immunofluorescence | C33A |  | DC50 | 0.003 ± 0.001 µM
O=C(O)CCc1ccccc1 | USP13 ZnF-UBD domain |  |  |  | Kd | > 1000 µM
O=C(COc1cccc2c1C(=O)N(C1CCC(=O)NC1=O)C2=O)NCCCCCC(=O)N1CCN(c2ccc(Nc3nc(NC4CCCCC4)c4[nH]cnc4n3)cc2)CC1 (stereo not drawn) | Aurora kinase A (AURKA, Homo sapiens, UniProt O14965) | degrader, western blot | IMR-32 |  | DC50 | 0.0088 µM
O=C(O)CCc1ccno1 | USP13 ZnF-UBD domain |  |  |  | Kd | > 1000 µM
CC[C@@H]1[C@H](F)C(=O)N[C@@H]1COc1nccc2cc(C(N)=O)c(OC)cc12 | TLK1 (Homo sapiens, UniProt Q9UKI8) | ATP-site probe binding, ActivX profiling | THP-1 cell lysate | Lys2 site | IC50 | 1.8 µM
O=C(O)CCn1ccccc1=O | USP13 ZnF-UBD domain |  |  |  | Kd | > 1000 µM
CC(=O)N[C@H]1[C@H](O[C@H]2[C@H](O)[C@@H](NC(C)=O)C(O)O[C@@H]2CO)O[C@H](CO)[C@@H](O[C@@H]2O[C@H](CO)[C@@H](O)[C@H](O)[C@H]2NC(C)=O)[C@@H]1O (stereo partly drawn) | Lysozyme C (LYZ, Gallus gallus, UniProt P00698) | surface sampling native MS |  | charge state 7+ | Kd | 16.4 ± 2.1 µM
O=C(O)CCn1cnc2ccccc21 | USP13 ZnF-UBD domain |  |  |  | Kd | > 1000 µM
Nc1nnc(-c2ccccc2O)cc1N1CCN(Cc2ccc(N3CCN(CCOc4cccc5c4C(=O)N(C4CCC(=O)NC4=O)C5=O)CC3)c(F)c2)CC1 (stereo not drawn) | SMARCA2 | degrader, immunoblot | H1792 SMARCA4 wild-type | 96 h | DC50 | 0.12 µM
